Published values from different studies.
Each line is one published result; not all experiments were run side by side.
APP: Amyloid-beta precursor protein (APP, Homo sapiens, UniProt P05067)
Chain of UniProt P05067 (whole entry, looked up): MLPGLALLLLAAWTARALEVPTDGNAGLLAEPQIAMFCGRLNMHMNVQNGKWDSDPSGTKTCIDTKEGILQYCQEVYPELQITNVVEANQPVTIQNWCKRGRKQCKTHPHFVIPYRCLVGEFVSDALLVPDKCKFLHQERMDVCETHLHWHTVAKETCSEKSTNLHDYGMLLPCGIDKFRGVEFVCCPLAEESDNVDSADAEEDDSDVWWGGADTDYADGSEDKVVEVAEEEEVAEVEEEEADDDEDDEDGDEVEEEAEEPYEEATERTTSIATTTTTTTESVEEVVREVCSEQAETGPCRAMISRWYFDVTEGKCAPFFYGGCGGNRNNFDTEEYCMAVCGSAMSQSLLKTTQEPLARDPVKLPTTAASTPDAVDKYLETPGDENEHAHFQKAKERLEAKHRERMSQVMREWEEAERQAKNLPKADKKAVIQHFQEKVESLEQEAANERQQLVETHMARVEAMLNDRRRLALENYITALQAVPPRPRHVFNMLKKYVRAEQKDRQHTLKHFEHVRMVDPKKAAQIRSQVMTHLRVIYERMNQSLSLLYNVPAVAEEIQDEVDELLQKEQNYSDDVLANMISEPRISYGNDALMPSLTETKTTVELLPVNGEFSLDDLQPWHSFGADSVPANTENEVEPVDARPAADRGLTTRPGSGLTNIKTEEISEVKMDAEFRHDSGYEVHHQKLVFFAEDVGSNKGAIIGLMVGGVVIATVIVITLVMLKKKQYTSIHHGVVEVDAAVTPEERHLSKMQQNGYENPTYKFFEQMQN
APP Aβ42 aggregates: Amyloid-beta precursor protein, Aβ42 aggregates (APP, Homo sapiens, UniProt P05067)

The inhibition of `CC[C@H](C)[C@H](NC(=O)[C@@H](NC(=O)[C@@H](N)C(C)C)C(C)C)C(=O)N[C@@H](C)C(=O)O` is reported as 66.2% (APP; amyloid aggregation, inhibitor, fluorescence; 10 µM, 24 h).
For `CC(C)C[C@@H]1NC(=O)CN(C)C(=O)CCCCC(=O)NCCCC[C@@H](C(=O)N[C@@H](CCCNC(=N)N)C(N)=O)NC(=O)[C@H](Cc2ccccc2)NC(=O)[C@H](Cc2ccccc2)NC(=O)c2ccccc2NC1=O`, “amyloid fibril disruption” read 60% (Amyloid-beta precursor protein, Aβ40 fibrils (APP, Homo sapiens, UniProt P05067); ThT fluorescence; 2-fold molar excess, pH 7.4, 37 °C, together with: preformed Aβ1-40 fibrils 40 µM).
With `COCCOCCOCCOC(=O)C(C#N)=Cc1ccc(N(C)C)cc1` the excitation maximum was 435 nm (APP Aβ42 aggregates; binding, fluorescence spectroscopy; PBS; 4 µM, together with: pre-aggregated Aβ(1-42) 5 µM).
The excitation maximum of `N#C/C(=C\c1ccc2cc(N3CCCCC3)ccc2c1)C(=O)OCC(O)CO` (stereo not shown) is reported as 410 nm (APP Aβ42 aggregates; fluorescence; free probe, 5% DMSO in water).
`CCN(CC)c1ccc(C=C(C#N)C(=O)OCCOCCOCCOC)cc1` has an emission maximum of 470 nm (APP Aβ42 aggregates; binding, fluorescence spectroscopy; PBS; 4 µM, together with: pre-aggregated Aβ(1-42) 5 µM).
`CC[C@H](C)[C@H](NC(=O)[C@@H]1CCCN1C(=O)[C@@H](N)C(C)C)C(=O)N[C@@H](C)C(N)=O` gave an inhibition of 18.5% (APP; amyloid aggregation, inhibitor, fluorescence; 10 µM, 24 h).
The inhibition of `CC(C)C[C@@H]1NC(=O)CN(C)C(=O)CCC(=O)NCCCC[C@@H](C(=O)N[C@@H](CCCNC(=N)N)C(N)=O)NC(=O)[C@H](Cc2ccccc2)NC(=O)[C@H](Cc2ccccc2)NC(=O)c2ccccc2NC1=O` is reported as 72% (Amyloid-beta precursor protein, monomer (APP, Homo sapiens, UniProt P05067); amyloid aggregation, inhibitor, fluorescence; 40 µM, pH 7.4).
`COCCOCCOCCOC(=O)/C(C#N)=C/c1ccc2cc(NCCN3CCOCC3)ccc2c1` has an emission maximum of 570 nm (APP Aβ42 aggregates; fluorescence; free probe, 5% DMSO in water).
`CC[C@H](C)[C@@H]1NC(=O)[C@H]([C@@H](C)O)NC(=O)[C@H](Cc2ccc(O)cc2)NC(=O)[C@H](CCCNC(=N)N)NC(=O)[C@@H]2CCCN2C(=O)[C@H]2CCCN2C(=O)[C@H]([C@@H](C)O)NC(=O)[C@H](C(C)C)NC(=O)[C@H](C(C)C)NC(=O)[C@H](CCCCN)NC(=O)[C@H](CO)NC(=O)[C@@H](CCC(N)=O)NC(=O)[C@H](CO)NC(=O)[C@H](Cc2ccc(O)cc2)NC(=O)[C@H](CO)NC(=O)[C@H](Cc2ccc(O)cc2)NC(=O)[C@@H]2CCCN2C(=O)[C@H](CO)NC(=O)[C@H](CC(C)C)NC(=O)[C@H](CC(C)C)NC(=O)[C@H](C)NC(=O)[C@H](C)NC1=O` has a hydrodynamic diameter of about 1000 nm (Amyloid-beta precursor protein, Aβ40 (APP, Homo sapiens, UniProt P05067); amyloid-beta aggregation, dynamic light scattering; PBS; 14 µM, 5 h, 37 °C, together with: 140 µM amyloid-beta).
For `[123I]c1ccc2nc(-c3ccc(-n4ccnn4)nc3)cn2c1`, the SUVR increase was 20 to 70% (Amyloid-beta precursor protein, amyloid-beta (APP, Homo sapiens, UniProt P05067); SPECT; Alzheimer's disease patients, cortical regions; range over cortical regions; relative to: healthy control subjects).
For `OC(Cc1cc(-c2ccc(C(O)C(F)(F)F)s2)sc1-c1ccc(-c2sc(-c3ccc(C(O)C(F)(F)F)s3)cc2CC(O)C(F)(F)F)s1)C(F)(F)F` (stereo not shown), the Kd ratio was 108 (Amyloid-beta precursor protein, Aβ40 aggregates (APP, Homo sapiens, UniProt P05067); fluorescence; Aβ aggregated 90 min; relative to: tau Kd over Aβ Kd).
With `COCCOCCOCCOCCOC(=O)/C(C#N)=C/c1ccc2cc(N3CCCCC3)ccc2c1` the excitation maximum was 420 nm (APP Aβ42 aggregates; fluorescence; free probe, 5% DMSO in water).
With `COc1cc(-c2nc3ccccc3s2)cc(CN(C)Cc2ccccn2)c1O` the inhibition was over 90% (Amyloid-beta precursor protein, Aβ42 copper-bound (APP, Homo sapiens, UniProt P05067); H2O2 production by Cu-Aβ42, inhibitor, HRP/Amplex Red; concentration not given, together with: sodium ascorbate).
